Measurements from different studies.
Each numbered part is a random draw from the data of one study; scales do not carry over between parts.

Series 1
Target: Transcriptional repressor CTCF (CTCF, Homo sapiens, UniProt P49711, residues 1-727, full length assumed)
Technique: protein-binding microarray
Form: double-stranded DNA, one strand shown
Matrix: in vitro
Concentration: not given
Notes: k-mer, scored over probes, only values ≥0.25
Direction: higher = stronger binding
Target sequence (chain): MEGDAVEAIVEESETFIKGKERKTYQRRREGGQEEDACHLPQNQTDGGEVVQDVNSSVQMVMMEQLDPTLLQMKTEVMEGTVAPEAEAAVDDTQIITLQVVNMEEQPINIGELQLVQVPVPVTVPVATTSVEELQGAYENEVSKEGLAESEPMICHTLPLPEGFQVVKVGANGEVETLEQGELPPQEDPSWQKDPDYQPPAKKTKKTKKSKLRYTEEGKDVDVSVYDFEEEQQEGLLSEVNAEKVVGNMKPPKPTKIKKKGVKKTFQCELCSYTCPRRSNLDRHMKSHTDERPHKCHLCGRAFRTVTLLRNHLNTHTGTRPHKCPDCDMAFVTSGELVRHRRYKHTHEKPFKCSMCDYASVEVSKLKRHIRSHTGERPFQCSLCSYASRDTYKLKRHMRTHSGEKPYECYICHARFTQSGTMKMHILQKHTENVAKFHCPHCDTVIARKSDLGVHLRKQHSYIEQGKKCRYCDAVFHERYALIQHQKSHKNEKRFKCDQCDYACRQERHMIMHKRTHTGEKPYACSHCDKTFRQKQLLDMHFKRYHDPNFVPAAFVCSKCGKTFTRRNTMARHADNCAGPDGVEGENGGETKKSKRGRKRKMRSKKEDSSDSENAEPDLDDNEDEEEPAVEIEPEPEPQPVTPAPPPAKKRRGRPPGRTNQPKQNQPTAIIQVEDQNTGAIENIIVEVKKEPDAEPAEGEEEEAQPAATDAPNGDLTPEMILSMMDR
Sequence	E-score
CATAGTAA	0.281
GATAATTA	0.289
TATAAACA	0.344

Series 2
Target: Interferon regulatory factor 5, full length, phosphomimetic (IRF5, Homo sapiens, UniProt Q13568-2, residues 1-514, K96S/S451D/S453D/S456D/S462D)
Technique: protein-binding microarray
Form: double-stranded DNA, one strand shown
Matrix: in vitro
Concentration: 250 nM
Notes: 60-bp whole probe
Together with: salmon DNA 0.4 mg/ml
Baseline: random background probes
Direction: higher = stronger binding
Sequence	log fluorescence
GCCTAGCACTTTTGAAGTTTGGCGTTGACGTGCTAGGTCTTGATTCGCTTGACGCTGCTG	0.353 z-score
GCCTAGCACGACGATTTCGGTTCCGAGACGTGCTAGGTCTTGATTCGCTTGACGCTGCTG	6.78 z-score
GCCTAGCACTCAAAACTCGTATGTGACACTGTGCTAGTCTTGATTCGCTTGACGCTGCTG	0.302 z-score
GCCTAGCACTTAGAACTGGGGTTTCGATTGGTGCTAGTCTTGATTCGCTTGACGCTGCTG	5.17 z-score

Series 3
Target: Histone acetyltransferase KAT6A, winged helix 2, GST fusion (KAT6A, Homo sapiens, UniProt Q92794, residues 85-181)
Technique: protein binding microarray
Form: double-stranded DNA, one strand shown
Matrix: in vitro
Concentration: not given
Notes: 8-mer, flanks averaged, mean of 2 arrays, mostly near background
Baseline: not given
Direction: higher = stronger binding
Residues (chain): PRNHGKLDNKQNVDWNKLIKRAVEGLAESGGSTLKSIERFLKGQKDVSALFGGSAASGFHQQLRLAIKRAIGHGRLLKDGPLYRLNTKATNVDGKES
Sequence	E-score
ATGAACAA	-0.108
GACCCGCC	0.194
AGTCGGGA	0.144
ATTTGTCC	-0.0288

Further values, each from its own experiment
Substance	target	assay	test system	conditions	scale	endpoint	value
PhoQ, residues 284 288 289 292 302 303 AGGLSV	PhoP, residues 12 14 15 18 19 NQCAL (Escherichia coli, UniProt P23836)	Sort-seq, item: YFP reporter	E. coli	PhoQ-PhoP variant library, together with: 10 µM Mg2+	baseline: high Mg2+ state, higher = stronger signaling	fold induction	4.22

A few entries again (series 2):
Sequence	log fluorescence
GCCTAGCACTTAGAACTGGGGTTTCGATTGGTGCTAGTCTTGATTCGCTTGACGCTGCTG	5.17 z-score
